Measurements from different studies.
A part holds a random share of what one study measured. “And” joins repeats or separate records; there may be more than shown.
Sequence of UniProt P42336 (whole entry, unmodified, looked up): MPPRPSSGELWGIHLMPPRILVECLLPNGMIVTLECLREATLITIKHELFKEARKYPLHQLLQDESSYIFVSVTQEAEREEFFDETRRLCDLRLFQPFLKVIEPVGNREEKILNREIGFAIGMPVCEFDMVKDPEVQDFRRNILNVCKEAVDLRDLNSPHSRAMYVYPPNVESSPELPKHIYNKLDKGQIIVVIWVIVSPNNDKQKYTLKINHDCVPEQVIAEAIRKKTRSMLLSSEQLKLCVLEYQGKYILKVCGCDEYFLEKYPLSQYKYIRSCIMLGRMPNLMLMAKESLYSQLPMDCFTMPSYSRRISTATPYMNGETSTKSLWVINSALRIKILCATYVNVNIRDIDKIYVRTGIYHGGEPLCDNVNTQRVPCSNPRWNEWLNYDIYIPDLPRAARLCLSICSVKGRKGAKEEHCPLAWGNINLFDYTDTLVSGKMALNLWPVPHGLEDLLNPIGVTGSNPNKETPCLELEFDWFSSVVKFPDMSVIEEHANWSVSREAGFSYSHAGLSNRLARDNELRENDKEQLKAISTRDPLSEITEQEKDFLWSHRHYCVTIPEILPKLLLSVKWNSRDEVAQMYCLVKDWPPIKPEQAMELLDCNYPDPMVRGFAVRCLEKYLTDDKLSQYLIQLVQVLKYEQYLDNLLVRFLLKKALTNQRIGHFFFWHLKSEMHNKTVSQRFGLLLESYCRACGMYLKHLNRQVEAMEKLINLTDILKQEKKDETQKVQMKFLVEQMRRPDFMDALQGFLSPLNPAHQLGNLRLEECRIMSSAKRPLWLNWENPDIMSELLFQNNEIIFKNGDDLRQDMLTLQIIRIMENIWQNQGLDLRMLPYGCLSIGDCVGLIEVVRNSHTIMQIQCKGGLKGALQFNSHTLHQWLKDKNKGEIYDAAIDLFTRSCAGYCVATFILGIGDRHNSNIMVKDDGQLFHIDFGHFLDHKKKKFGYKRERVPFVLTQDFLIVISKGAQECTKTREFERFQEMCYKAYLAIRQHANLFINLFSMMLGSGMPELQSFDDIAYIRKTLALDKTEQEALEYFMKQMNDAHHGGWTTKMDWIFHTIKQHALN
Sequence of UniProt Q56UN5 (whole entry, looked up): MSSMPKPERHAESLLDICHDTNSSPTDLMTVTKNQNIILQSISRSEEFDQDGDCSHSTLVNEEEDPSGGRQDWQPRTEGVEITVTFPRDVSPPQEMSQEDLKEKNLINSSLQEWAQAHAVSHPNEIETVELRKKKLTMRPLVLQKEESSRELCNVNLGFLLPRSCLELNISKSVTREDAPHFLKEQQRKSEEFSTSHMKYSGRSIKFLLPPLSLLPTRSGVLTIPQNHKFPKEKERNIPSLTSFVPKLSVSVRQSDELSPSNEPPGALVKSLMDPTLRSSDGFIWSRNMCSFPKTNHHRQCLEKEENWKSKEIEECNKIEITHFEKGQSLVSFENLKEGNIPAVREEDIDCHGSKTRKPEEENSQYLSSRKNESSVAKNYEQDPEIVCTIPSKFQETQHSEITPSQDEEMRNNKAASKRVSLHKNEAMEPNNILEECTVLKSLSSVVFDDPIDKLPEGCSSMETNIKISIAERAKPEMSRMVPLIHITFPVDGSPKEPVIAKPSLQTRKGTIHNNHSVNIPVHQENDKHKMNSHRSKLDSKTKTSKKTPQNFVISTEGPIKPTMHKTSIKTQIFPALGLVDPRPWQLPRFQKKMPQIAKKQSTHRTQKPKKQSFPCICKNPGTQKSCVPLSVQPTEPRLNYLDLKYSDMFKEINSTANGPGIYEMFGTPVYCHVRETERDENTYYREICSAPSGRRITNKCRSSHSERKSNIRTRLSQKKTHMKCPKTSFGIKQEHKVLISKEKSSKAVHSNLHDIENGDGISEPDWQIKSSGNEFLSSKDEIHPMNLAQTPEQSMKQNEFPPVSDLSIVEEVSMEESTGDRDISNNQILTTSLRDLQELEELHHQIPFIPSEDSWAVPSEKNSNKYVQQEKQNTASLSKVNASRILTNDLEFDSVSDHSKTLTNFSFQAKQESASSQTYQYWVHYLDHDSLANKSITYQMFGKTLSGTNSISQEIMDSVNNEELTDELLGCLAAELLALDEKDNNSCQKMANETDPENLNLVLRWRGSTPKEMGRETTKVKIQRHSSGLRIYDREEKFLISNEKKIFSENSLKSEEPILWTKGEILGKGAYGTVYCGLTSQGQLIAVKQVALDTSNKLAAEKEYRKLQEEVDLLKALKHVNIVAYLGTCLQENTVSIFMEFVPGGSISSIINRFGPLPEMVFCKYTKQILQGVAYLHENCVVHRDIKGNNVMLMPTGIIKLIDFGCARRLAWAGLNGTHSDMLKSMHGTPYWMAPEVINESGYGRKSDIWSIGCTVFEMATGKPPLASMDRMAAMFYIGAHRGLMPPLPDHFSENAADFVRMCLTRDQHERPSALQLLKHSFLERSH

Series 1
Target: DNA polymerase theta, ATPase domain (POLQ, Homo sapiens, UniProt O75417)
Sequence of UniProt O75417 (whole entry, unmodified, looked up): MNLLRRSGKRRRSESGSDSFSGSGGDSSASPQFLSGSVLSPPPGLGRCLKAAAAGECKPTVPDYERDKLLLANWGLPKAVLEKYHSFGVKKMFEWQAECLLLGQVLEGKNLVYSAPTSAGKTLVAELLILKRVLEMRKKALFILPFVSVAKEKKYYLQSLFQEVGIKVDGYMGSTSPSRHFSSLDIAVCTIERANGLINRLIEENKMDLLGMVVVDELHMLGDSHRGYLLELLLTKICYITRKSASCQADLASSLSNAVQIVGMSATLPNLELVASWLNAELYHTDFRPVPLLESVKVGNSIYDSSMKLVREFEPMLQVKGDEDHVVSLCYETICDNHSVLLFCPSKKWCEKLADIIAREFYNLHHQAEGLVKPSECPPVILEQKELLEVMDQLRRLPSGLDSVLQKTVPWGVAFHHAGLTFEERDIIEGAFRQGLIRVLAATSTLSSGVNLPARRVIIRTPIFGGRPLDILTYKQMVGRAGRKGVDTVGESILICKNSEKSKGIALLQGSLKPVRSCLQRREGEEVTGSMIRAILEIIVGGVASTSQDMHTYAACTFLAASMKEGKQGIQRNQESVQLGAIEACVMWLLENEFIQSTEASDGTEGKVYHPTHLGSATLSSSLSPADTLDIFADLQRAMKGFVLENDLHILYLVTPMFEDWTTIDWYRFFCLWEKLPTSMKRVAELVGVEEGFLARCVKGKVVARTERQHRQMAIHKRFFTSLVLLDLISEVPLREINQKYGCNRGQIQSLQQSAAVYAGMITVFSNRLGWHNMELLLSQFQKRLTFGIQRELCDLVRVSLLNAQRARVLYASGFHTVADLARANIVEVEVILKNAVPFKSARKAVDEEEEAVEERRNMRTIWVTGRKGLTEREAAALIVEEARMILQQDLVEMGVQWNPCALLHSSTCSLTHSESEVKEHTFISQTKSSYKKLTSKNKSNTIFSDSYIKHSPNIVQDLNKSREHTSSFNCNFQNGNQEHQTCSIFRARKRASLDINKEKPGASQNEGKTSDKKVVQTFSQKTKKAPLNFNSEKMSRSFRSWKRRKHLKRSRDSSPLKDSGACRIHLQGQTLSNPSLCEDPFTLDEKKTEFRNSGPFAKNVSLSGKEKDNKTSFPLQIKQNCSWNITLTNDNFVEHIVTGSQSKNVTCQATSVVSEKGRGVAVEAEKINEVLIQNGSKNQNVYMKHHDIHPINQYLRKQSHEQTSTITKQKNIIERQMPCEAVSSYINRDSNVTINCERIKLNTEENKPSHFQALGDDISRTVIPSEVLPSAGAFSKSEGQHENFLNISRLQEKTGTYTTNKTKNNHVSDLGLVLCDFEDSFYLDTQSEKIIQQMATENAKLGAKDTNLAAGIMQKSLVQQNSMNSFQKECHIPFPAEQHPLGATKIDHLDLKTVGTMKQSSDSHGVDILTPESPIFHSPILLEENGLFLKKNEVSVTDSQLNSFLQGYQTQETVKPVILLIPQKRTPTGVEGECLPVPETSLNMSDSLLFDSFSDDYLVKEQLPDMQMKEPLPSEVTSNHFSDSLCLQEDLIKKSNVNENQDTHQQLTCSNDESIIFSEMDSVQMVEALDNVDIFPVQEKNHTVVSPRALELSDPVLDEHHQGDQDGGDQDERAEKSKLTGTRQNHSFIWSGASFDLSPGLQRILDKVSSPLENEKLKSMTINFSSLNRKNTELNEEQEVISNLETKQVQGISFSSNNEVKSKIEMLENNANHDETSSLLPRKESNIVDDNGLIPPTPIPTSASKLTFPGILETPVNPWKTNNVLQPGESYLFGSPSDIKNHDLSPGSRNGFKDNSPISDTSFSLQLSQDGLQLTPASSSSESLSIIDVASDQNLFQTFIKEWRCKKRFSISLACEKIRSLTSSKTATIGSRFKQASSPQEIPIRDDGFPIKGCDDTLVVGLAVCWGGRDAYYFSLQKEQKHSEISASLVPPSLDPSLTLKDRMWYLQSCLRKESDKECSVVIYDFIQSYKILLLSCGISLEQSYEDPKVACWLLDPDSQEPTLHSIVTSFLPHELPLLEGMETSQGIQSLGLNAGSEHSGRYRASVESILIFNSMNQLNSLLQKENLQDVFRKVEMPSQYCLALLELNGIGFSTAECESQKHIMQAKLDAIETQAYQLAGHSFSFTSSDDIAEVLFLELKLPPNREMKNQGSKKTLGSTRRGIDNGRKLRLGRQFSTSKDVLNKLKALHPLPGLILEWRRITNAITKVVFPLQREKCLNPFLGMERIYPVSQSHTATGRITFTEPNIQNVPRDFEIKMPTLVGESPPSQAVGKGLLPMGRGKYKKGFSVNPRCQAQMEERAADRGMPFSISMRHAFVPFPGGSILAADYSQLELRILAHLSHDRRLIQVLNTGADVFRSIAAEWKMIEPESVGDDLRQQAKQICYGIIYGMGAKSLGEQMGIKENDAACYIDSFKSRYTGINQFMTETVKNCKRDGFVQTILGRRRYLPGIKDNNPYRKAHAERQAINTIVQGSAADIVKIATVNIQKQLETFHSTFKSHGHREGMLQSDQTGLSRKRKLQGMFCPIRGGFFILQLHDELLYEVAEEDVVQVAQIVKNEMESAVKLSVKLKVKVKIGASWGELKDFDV
Observed: enzyme activity
Mode: inhibitor
Tested at: 77 µM
Relative to: untreated
With `O=C1CCC[C@@H]2[C@H]3CCC[N+]4([O-])CCC[C@@H](CN12)[C@@H]34` (some centres unmarked) the remaining activity was 96%.
The remaining activity of `CC[C@H](C)C(=O)O[C@H]1C[C@@H](C)C=C2C=C[C@H](C)[C@H](CC[C@@H]3C[C@@H](O)CC(=O)O3)[C@H]21` is reported as 101% and 98.2%.
For `CCNC(=O)c1[nH]nc(-c2cc(Cl)c(O)cc2O)c1-c1ccc(OC)cc1`, the remaining activity was 93.6%.
With `C[C@@H]1O[C@@H](O[C@H]2[C@H](Oc3cc(O)c4c(c3)O[C@H](c3ccc(O)cc3)CC4=O)O[C@H](CO)[C@@H](O)[C@@H]2O)[C@H](O)[C@H](O)[C@H]1O` the remaining activity was 101% and 102%.
`NC(=O)Nc1sc(-c2ccccc2)cc1C(N)=O` has a remaining activity of 117%.
For `COc1cc2ncnc(Nc3cccc(O)c3)c2cc1OC`, the remaining activity was 96%.
For `Oc1cc2c(cc1O)CN(C(=S)NCCc1ccc(Cl)cc1)CCC2`, the remaining activity was 99.8%.
With `CC(C)n1nc(-c2ccc3oc(N)nc3c2)c2c(N)ncnc21` the remaining activity was 101%.
For `O=C(O)CNC(=O)C(CS)Cc1ccccc1` (centres unmarked), the remaining activity was 93%.

Series 2
SMILES: O=C(O)[C@H]1[C@H](Cn2nnc3ccccc3c2=O)CC[C@@H]1C(=O)c1ccc(OCCC2CCOCC2)cc1
Technique: competition with immobilised ligand
Tested at: 1 µM
It gave 79% for remaining binding (Activin receptor type-2B (ACVR2B, Homo sapiens, UniProt Q13705); binding).
The remaining binding was 95% (STE20/SPS1-related proline-alanine-rich protein kinase (STK39, Homo sapiens, UniProt Q9UEW8); cell-free assay).
It gave 71% for remaining binding (Phosphatidylinositol 4,5-bisphosphate 3-kinase catalytic subunit alpha isoform (PIK3CA, Homo sapiens, UniProt P42336, H1047L); cell-free assay).
The remaining binding was 73% (Phosphatidylinositol 4,5-bisphosphate 3-kinase catalytic subunit alpha isoform (PIK3CA, Homo sapiens, UniProt P42336, I800L); cell-free assay).
It gave 99% for remaining binding (Receptor-type tyrosine-protein kinase FLT3 (FLT3, Homo sapiens, UniProt P36888); cell-free assay).
For Cyclin-dependent kinase 17 (CDK17, Homo sapiens, UniProt Q00537); cell-free assay: remaining binding read 74%.
The remaining binding was 100% (Bone morphogenetic protein receptor type-2 (BMPR2, Homo sapiens, UniProt Q13873); cell-free assay).
Phosphatidylinositol 3-kinase C2 domain-containing subunit gamma (PIK3C2G, Homo sapiens, UniProt O75747); cell-free assay — remaining binding: 99%.
For Epidermal growth factor receptor (EGFR, Homo sapiens, UniProt P00533, G719C); cell-free assay: remaining binding read 81%.
Tyrosine-protein kinase ABL2 (ABL2, Homo sapiens, UniProt P42684); cell-free assay — remaining binding: 99%.
For Serine/threonine-protein kinase pim-2 (PIM2, Homo sapiens, UniProt Q9P1W9); cell-free assay: remaining binding read 96%.
The remaining binding was 96% (Proto-oncogene tyrosine-protein kinase receptor Ret (RET, Homo sapiens, UniProt P07949, V804M); cell-free assay).
It gave 100% for remaining binding (Serine/threonine-protein kinase TAO1 (TAOK1, Homo sapiens, UniProt Q7L7X3); cell-free assay).
It gave 85% for remaining binding (Serine/threonine-protein kinase D1 (PRKD1, Homo sapiens, UniProt Q15139); cell-free assay).
It gave 100% for remaining binding (Homeodomain-interacting protein kinase 1 (HIPK1, Homo sapiens, UniProt Q86Z02); cell-free assay).

Series 3
Compound: COc1cc(/C=C(\C#N)C(=O)c2ccc(O)c(O)c2)cc(I)c1O
Mode: inhibitor
Tested at: 5 µM
The “log2 fold change” was 0.441 (kinase–CDC37 interaction; kinase–CDC37 binding; human cells; oncogenic FIP1L1-PDGFRA fusion; relative to: vehicle).
BCR-ABL human; kinase-CDC37 interaction; human cells; relative to: vehicle — “log2 fold change”: -0.244.
It gave -0.227 log2 for “log2 fold change” (Megakaryocyte-associated tyrosine-protein kinase (MATK, Homo sapiens, UniProt P42679); cell-based kinome screen; human cells; relative to: untreated control).
Serine/threonine-protein kinase B-raf (BRAF, Homo sapiens, UniProt P15056, G466V); cell-based kinome profiling; human cells; relative to: vehicle control — “log2 fold change”: -0.007.
It gave -0.079 for “log2 fold change” (Bone morphogenetic protein receptor type-1A (BMPR1A, Homo sapiens, UniProt P36894); cell-based kinome profiling; human cells; relative to: vehicle control).
For Serine/threonine-protein kinase H2 (PSKH2, Homo sapiens, UniProt Q96QS6); kinase-CDC37 interaction; human cells; relative to: vehicle: “log2 fold change” read 0.01.
It gave -0.495 for “log2 fold change” (Serine/threonine-protein kinase TNNI3K (TNNI3K, Homo sapiens, UniProt Q59H18); kinase activity; cell-based kinome screen; relative to: vehicle).
The “log2 fold change” was 0.632 (Tyrosine-protein kinase transmembrane receptor ROR2 (ROR2, Homo sapiens, UniProt Q01974); kinase activity; cell-based kinome screen; relative to: vehicle).
The “log2 fold change” was -0.083 (Activin receptor type-2B (ACVR2B, Homo sapiens, UniProt Q13705); cell-based kinome profiling; human cells; relative to: vehicle control).

Series 4
Compound: O=C(Nc1cnn(-c2csc(C(=O)NC3COC3)c2)c1)Nc1c(F)cccc1Cl
Observed: enzyme activity
Tested at: 5 µM
It gave 112% for remaining activity (Dual specificity protein kinase CLK2 (CLK2, Homo sapiens, UniProt P49760); relative to: untreated control).
Casein kinase I isoform delta (CSNK1D, Homo sapiens, UniProt P48730); relative to: untreated control — remaining activity: 112%.
For NUAK family SNF1-like kinase 1 (NUAK1, Homo sapiens, UniProt O60285); relative to: untreated control: remaining activity read 94.1%.
The remaining activity was 93.6% (Mitogen-activated protein kinase kinase kinase 8 (MAP3K8, Homo sapiens, UniProt P41279); inhibitor).
It gave 87.2% for remaining activity (Serine/threonine-protein kinase Nek6 (NEK6, Homo sapiens, UniProt Q9HC98); relative to: untreated control).
The remaining activity was 92.8% (Protein kinase C zeta type (PRKCZ, Homo sapiens, UniProt Q05513); relative to: untreated control).
It gave 86.6% for remaining activity (Vascular endothelial growth factor receptor 3 (FLT4, Homo sapiens, UniProt P35916); relative to: untreated control).
The remaining activity was 93.1% (cGMP-dependent protein kinase 1 (PRKG1, Homo sapiens, UniProt Q13976); relative to: untreated control).
The remaining activity was 92.3% (Receptor-interacting serine/threonine-protein kinase 4 (RIPK4, Homo sapiens, UniProt P57078); relative to: untreated control).
For Glycogen synthase kinase-3 beta (GSK3B, Homo sapiens, UniProt P49841); relative to: untreated control: remaining activity read 94.8%.
The remaining activity was 126% and 97.3% (Mitogen-activated protein kinase kinase kinase 19 (MAP3K19, Homo sapiens, UniProt Q56UN5); relative to: untreated control).

Some of these lines once more (series 2):
It gave 99% for remaining binding (Receptor-type tyrosine-protein kinase FLT3 (FLT3, Homo sapiens, UniProt P36888); cell-free assay).
It gave 79% for remaining binding (Activin receptor type-2B (ACVR2B, Homo sapiens, UniProt Q13705); binding).
For Epidermal growth factor receptor (EGFR, Homo sapiens, UniProt P00533, G719C); cell-free assay: remaining binding read 81%.
The remaining binding was 96% (Proto-oncogene tyrosine-protein kinase receptor Ret (RET, Homo sapiens, UniProt P07949, V804M); cell-free assay).
It gave 71% for remaining binding (Phosphatidylinositol 4,5-bisphosphate 3-kinase catalytic subunit alpha isoform (PIK3CA, Homo sapiens, UniProt P42336, H1047L); cell-free assay).
For Serine/threonine-protein kinase pim-2 (PIM2, Homo sapiens, UniProt Q9P1W9); cell-free assay: remaining binding read 96%.
Phosphatidylinositol 3-kinase C2 domain-containing subunit gamma (PIK3C2G, Homo sapiens, UniProt O75747); cell-free assay — remaining binding: 99%.
